Assay results gathered from unrelated publications.
Every numbered part comes from another study and shows a few of its results, in no order. Changes are numbered by the printed parent chain.

Block 1 — method: DHFR PCA, deep sequencing; medium: yeast; added: (+)-ABA 4.8 µM; baseline: wild-type fitted maximum; direction: higher = stronger binding
Target: ABI1, truncated, D143A, DHFR fusion (Arabidopsis thaliana)
Setting: methotrexate growth selection, single substitutions
Parent: PYL1, truncated, DHFR fusion (Arabidopsis thaliana); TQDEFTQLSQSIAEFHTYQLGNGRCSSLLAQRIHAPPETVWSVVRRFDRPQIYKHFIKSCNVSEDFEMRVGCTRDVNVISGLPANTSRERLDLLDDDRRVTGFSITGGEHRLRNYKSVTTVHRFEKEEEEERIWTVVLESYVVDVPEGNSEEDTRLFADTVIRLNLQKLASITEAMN; partner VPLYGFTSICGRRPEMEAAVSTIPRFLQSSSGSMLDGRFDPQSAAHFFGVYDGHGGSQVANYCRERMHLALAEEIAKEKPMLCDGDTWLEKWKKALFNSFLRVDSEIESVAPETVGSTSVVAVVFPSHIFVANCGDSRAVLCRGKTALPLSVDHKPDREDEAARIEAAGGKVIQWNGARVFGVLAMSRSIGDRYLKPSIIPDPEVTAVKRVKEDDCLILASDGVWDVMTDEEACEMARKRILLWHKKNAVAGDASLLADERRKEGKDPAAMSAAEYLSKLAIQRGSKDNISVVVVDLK
Change	relative binding score [%]
S42C	41.2
Y115E	-19.7
R111P	2.02
S117T	6.18
D96F	-9.57
F124G	53.2
E14M	47.7
H55V	96.1
S117V	-9.73
L94N	9.74
L93W	22.9

Block 2 — method: universal PBM; form: double-stranded DNA, one strand shown; medium: in vitro; tested at: not given; direction: higher = stronger binding
Target: Sal-like protein 4, full length isoform B (SALL4, Homo sapiens, UniProt Q9UJQ4-2, residues 1-616)
Setting: 8-mer, flanks averaged, mean of replicates
Construct (chain): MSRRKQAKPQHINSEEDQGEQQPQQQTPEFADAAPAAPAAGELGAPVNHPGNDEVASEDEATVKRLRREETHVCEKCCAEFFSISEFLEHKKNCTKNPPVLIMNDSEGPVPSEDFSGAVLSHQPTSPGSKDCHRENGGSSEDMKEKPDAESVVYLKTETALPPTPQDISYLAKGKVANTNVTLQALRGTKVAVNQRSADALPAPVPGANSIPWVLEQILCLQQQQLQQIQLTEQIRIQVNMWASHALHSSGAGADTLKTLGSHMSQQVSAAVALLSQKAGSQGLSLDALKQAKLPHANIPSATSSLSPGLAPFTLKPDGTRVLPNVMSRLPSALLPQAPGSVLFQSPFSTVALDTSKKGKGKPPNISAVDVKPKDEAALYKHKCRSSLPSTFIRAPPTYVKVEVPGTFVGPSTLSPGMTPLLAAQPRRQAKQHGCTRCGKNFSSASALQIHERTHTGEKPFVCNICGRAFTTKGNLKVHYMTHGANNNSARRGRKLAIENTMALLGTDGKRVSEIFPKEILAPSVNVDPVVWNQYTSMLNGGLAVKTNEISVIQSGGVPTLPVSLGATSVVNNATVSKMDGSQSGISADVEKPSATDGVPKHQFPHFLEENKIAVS
Strand	E-score
TAAGAAGA	0.136
AACAATCA	0.215
CGCCTCCA	-0.0519
AAATAGAC	0.146
ACGCACCT	-0.0632
ACGTCAAG	0.0363
GATGCCCA	0.0505
GCATATGA	0.196
ACAACACT	0.196
ACTCATGA	0.185
GACGGACC	-0.275

Block 3 — target: CCNB2, cyclin fold, Cln2 fusion (human); method: yeast growth competition, sequencing; medium: yeast; setting: weak parent motif; baseline: not given; direction: higher = stronger binding
Parent: SCAPER docking peptide (human); SNARRSLNFGGST
Change	normalised enrichment score
S6G	0.567
A3F	0.805
G11H	-0.0628
G11D	0.0537
S1N	0.213
R5V	0.157
L7A	0.772
N2T	0.172
G10R	0.462
L7N	-0.12
T13C	0.387
T13L	0.201

Single results of other studies
Molecule	target	assay	system	setting	how to read	measurement	value
PhoQ, residues 284 288 289 292 302 303 SSTMSV	PhoP, residues 12 14 15 18 19 SMASL (Escherichia coli, UniProt P23836)	Sort-seq, refers to: YFP reporter	E. coli	PhoQ-PhoP variant library, added: 10 µM Mg2+	baseline: high Mg2+ state, higher = stronger signaling	fold induction	0.853

A few entries again (block 3):
Change	normalised enrichment score
T13C	0.387
T13L	0.201
